Measured values gathered from unrelated publications.

`FC(F)(F)c1cccc(CNc2nc(NC3CCN(Cc4ccccc4)CC3)c3nc[nH]c3n2)c1` has an MIC of 50 µg/mL (Cryptococcus neoformans; microbial growth, broth dilution; 72 h).
`C=C(NC(=O)c1csc(-c2nc3c(cc2O)-c2nc(cs2)C(=O)NC(C(C)O)C(=O)NC(=C(C)OC)c2nc(cs2)C(=O)NC2c4nc(cs4)C(=O)NC(COC(=O)c4c5c6c(cccc6n4O)COC(=O)C(OC4CC(C)(O)C(N(C)C)C(C)O4)C2OC5)c2nc-3cs2)n1)C(N)=O` (centres unmarked) gave an MIC of 0.0156 µg/mL (Staphylococcus aureus; microbial growth, agar dilution; ATCC29213).
`CC1C=CC=CC(C)C2C=CC3CC(C)(O)C(Cl)C(C)C3C2C(=O)C(Cl)(Cl)C(=O)C(C)C(=O)O1` (centres unmarked) has an MIC of 0.1 µg/mL (Staphylococcus aureus; MSSA clinical isolate; resistant PEN/CLI/ERY/SXT).
`N=C(N)NCCC[C@@H]1NC(=O)[C@H](CCCNC(=N)N)NC(=O)[C@@H](CCCNC(=N)N)NC(=O)[C@@H](CCCNC(=N)N)NC(=O)[C@@H](C(c2ccccc2)c2ccccc2)NC(=O)[C@@H](Cc2c[nH]c3ccccc23)NC(=O)[C@@H](C(c2ccccc2)c2ccccc2)NC1=O` has an MIC of 16 µg/mL (Candida parapsilosis; ATCC 22019).
The MIC of `C[C@@H]1C(=O)O[C@@H](C)/C=C/C=C\[C@@H](C)[C@@H]2C=C[C@@H]3C[C@@]4(C)O[C@H]4[C@@H](C)[C@H]3[C@@H]2C(=O)C(Cl)(Cl)C1=O` is reported as 0.025 µg/mL (Staphylococcus aureus; MRSA clinical isolate; resistant OXA/GEN/TET).
The MIC of `Cc1c(CN(C)C(=O)/C=C/c2cnc3c(c2)CC(N)C(=O)N3)oc2ccccc12` (centres unmarked) is reported as 16 µg/mL (Escherichia coli; broth microdilution; AR-0085).
For `N=C(N)NCCC[C@@H]1NC(=O)[C@@H](CCCNC(=N)N)NC(=O)[C@H](CCCNC(=N)N)NC(=O)[C@@H](C(c2ccccc2)c2ccccc2)NC(=O)[C@@H](C(c2ccccc2)c2ccccc2)NC(=O)[C@@H](C(c2ccccc2)c2ccccc2)NC(=O)[C@@H](CCCNC(=N)N)NC1=O`, the MIC was 8 µg/mL (Candida parapsilosis; ATCC 22019).
With `COC1C=COC2(C)Oc3c(C)c(O)c4c(c3C2=O)C2=NC3(CCN(CC(C)C)CC3)NC2=C(NC(=O)C(C)=CC=CC(C)C(O)C(C)C(O)C(C)C(OC(=O)Nc2cccnn2)C1C)C4=O` (centres unmarked) the MIC was 0.038 µM (Mycobacteroides abscessus; broth microdilution; ATCC 19977).

Repeated from above:
`C=C(NC(=O)c1csc(-c2nc3c(cc2O)-c2nc(cs2)C(=O)NC(C(C)O)C(=O)NC(=C(C)OC)c2nc(cs2)C(=O)NC2c4nc(cs4)C(=O)NC(COC(=O)c4c5c6c(cccc6n4O)COC(=O)C(OC4CC(C)(O)C(N(C)C)C(C)O4)C2OC5)c2nc-3cs2)n1)C(N)=O` (centres unmarked) gave an MIC of 0.0156 µg/mL (Staphylococcus aureus; microbial growth, agar dilution; ATCC29213).
